Experimental data collected from several papers.
Each line is one published result; not all experiments were run side by side. Several values in a cell are separate wells, animals, samples, runs or records. ± gives the spread as reported.

CN[C@@H](C)C(=O)N[C@H]1CN(S(=O)(=O)c2cccc(S(=O)(=O)N3CC[C@H]4CC[C@@H](C(=O)NC(c5ccccc5)c5ccccc5)N4C(=O)[C@@H](NC(=O)[C@H](C)NC)C3)c2)CC[C@H]2CC[C@@H](C(=O)NC(c3ccccc3)c3ccccc3)N2C1=O  median progression-free survival (RECIST 1.1; advanced pancreatic cancer patients; dose not given, efficacy-evaluable, together with: AG): 3.22 months
O=C(NS(=O)(=O)c1ccc(C(F)(F)F)cc1)c1cc2ccccc2n1Cc1ccc(Br)c2ccccc12  serum uric acid decrease (mouse, acute hyperuricaemia model, serum; oral, 2 mg/kg; relative to: vehicle model): 86.1%
CC(C)n1c(C2CCNCC2)nc2c([N+](=O)[O-])c(Br)c(Br)cc21  minimum change from baseline (refers to: blasts; AML patients IDH mutated, bone marrow; dose not given, all doses): -99%
N#Cc1ccc2c(c1)[C@H]1CCCN(C(=O)c3ccc4[nH]cnc4c3)[C@H]1C2  plasma 1,5-anhydroglucitol (T2DM patients with overweight or obesity, plasma; oral, 240 mg, day 15 (360 h), multiple dosing, mean): 10.5 µg/mL
C[C@@H](NC(=O)N1C(=O)[C@H](Cc2ccnc(N)c2)[C@H]1C(=O)O)C1CCCCC1  PT AUEC (human; iv infusion, 2.25 mg/kg/h, 24 h): 1660 h·s
O=C1Nc2cc3[nH]nc(-c4ccncc4)c3cc2CN1Cc1ccccc1  stable disease, best response (RECIST v1.1; human, relapsed or refractory advanced solid tumours; intravenous, 4.8 mg/kg): 67%
CN(C)C(=O)c1cc2cnc(Nc3ccc(N4CCNCC4)cn3)nc2n1C1CCCC1  normalized enrichment score (RNA-seq GSEA, refers to: HALLMARK_E2F_TARGETS; MB002 tumour; concentration not given, in vivo; relative to: vehicle, direction not given): 3.39
C[C@H]1C[C@H]2CSC(N)=N[C@@]2(c2nc(NC(=O)c3ccc(OC(F)F)cn3)cs2)CO1  percent change from baseline (refers to: Aβ1-40; healthy adults, plasma; 275 mg once daily, day 10; relative to: placebo): -86.8%
COc1cc2cc(-c3ccc(CC(=O)Nc4cc(C(C)(C)C(F)(F)F)no4)cn3)cnc2cc1OC  disease control rate (RECIST v1.1; RET-altered advanced solid tumour patients; oral, 150 mg once daily, phase I): 38%
C=CCn1c(=O)c2cnc(Nc3ccc(N4CCN(C)CC4)cc3)nc2n1-c1ccc2c(n1)[C@@](O)(CC)CC2  tumour growth inhibition (A-427 xenograft, NOD/SCID mouse; 20 mg/kg once daily): 16%
O=S(=O)(NCCNC/C=C/c1ccc(Br)cc1)c1cccc2cnccc12  two-cell embryos (embryonic development; mouse zygotes; 20 µM, 24 h post-hCG): 0%
NCc1cc2c(cc1F)C(=O)N(C1CCC(=O)NC1=O)C2 (centres unmarked)  degradation (degrader, Western blot, refers to: NEK7; cynomolgus monkey, PBMC; oral, 0.1 mg/kg, 6 h): ~65%
Cn1cc([C@H]2C[C@H]3CSC(N)=N[C@@]3(c3ccc(F)cc3F)CO2)cn1  brain Aβ40 level (refers to: Aβx-40; wild-type mouse, brain; subcutaneous, 3 mg/kg, 6 h): 2.5 ng/g
CCCC(CCC)C(=O)Oc1cccc(C(O)CCN)c1.O=CO (centres unmarked)  outer nuclear layer thickness (OCT imaging; BALB/cJ mouse, light-induced retinal damage; intraperitoneal, 10 mg/kg, 500 µm from optic nerve head, together with: light 15000 lx for 8 h): 46.7 µm and 57.6 µm and 48.8 µm and 56.9 µm and 56.1 µm
COc1ccc(S(=O)(=O)NC(=O)c2cc3ccccc3n2Cc2ccc(C3CC3)c3ccccc23)cc1  serum uric acid decrease (mouse, acute hyperuricaemia model, serum; oral, 2 mg/kg; relative to: vehicle model): 85.3%
N#Cc1ccn2c(-c3ccncc3)c(-c3ccc(F)cc3)nc2c1  log2 fold change (kinase binding, competitor, MIB/MS competition, refers to: NIK1; Candida albicans cell lysate; 10 µM; relative to: DMSO): -0.886
O=C(O)CCc1nccc2c3ccccc3n(Cc3ccc(Br)c4ccccc34)c12  serum uric acid (mouse, acute hyperuricaemia model; oral, 2 mg/kg): 345 µM
CC(C)[C@H](C(=O)Nc1ccc(C(=O)NO)cc1)c1ccccc1  tumour volume (MRI volumetry; human, right IAC schwannoma; dose not given, day 2037 post-treatment): 0.0368 cm³
c1ccc(-c2cc(-c3ccccc3)n(Cn3ccnc3)n2)cc1  wound size (rat, STZ-nicotinamide diabetic; 75 mg/kg, 264 h, full-thickness excision wound): 15.3 mm
N#Cc1ccc2c(-c3ccncc3)c(-c3ccc(F)cc3)nn2c1  log2 fold change (kinase binding, competitor, MIB/MS competition, refers to: AKL1; Candida albicans cell lysate; 10 µM; relative to: DMSO): 0.0697
CSCCNc1nc(SCCC(F)(F)F)nc2c1ncn2[C@@H]1O[C@H](COP(=O)(O)OP(=O)(O)C(Cl)(Cl)P(=O)(O)O)[C@@H](O)[C@H]1O  high residual platelet reactivity (ADP-induced platelet aggregation, Multiplate aggregometry; human patients, whole blood; dose not given, 3 h, AUC above 46; relative to: patients): 48.5%
CC(C)NCC(O)c1ccc(O)c(O)c1 (centres unmarked)  sarcomere length (ventricular cardiomyocytes, C57BL/6 mouse; dose not given, 0.304 s): 1.72 µm
OC[C@H]1O[C@@H](c2ccc(Cl)c(Cc3ccc(O[C@H]4CCOC4)cc3)c2)[C@H](O)[C@@H](O)[C@@H]1O  systolic blood pressure change (Japanese type 1 diabetes patients; 10 mg, day 28, 672 h; relative to: baseline): -4.6 mmHg
COc1ncnn2ccc(-c3cnc4nc(C)n(Cc5nnc([C@@H](C)F)o5)c4c3)c12  median duration of response (Homo sapiens, relapsed or refractory AML or MDS; dose not given, responding patients): 164 days
O=c1cc(-c2ccc(O)c(O)c2)oc2cc(O)cc(O)c12  protein level (Western blot, refers to: MRP2; duck, small intestine; dose not given; relative to: untreated): decreased
Cc1c(C)c2c(c(C)c1O)CC[C@@](C)(CCC[C@H](C)CCC[C@H](C)CCCC(C)C)O2  absorbance (Fe3+ reduction, ferricyanide reduction; 30 µg/mL): 1.012 ± 0.004
Cc1ccc(S(=O)(=O)NC(=O)c2cc3ccccc3n2Cc2ccc(C3CC3)c3ccccc23)cc1  serum uric acid decrease (mouse, acute hyperuricaemia model, serum; oral, 2 mg/kg; relative to: vehicle model): 72.9%
O=C(O)CNC(=O)Cc1ccccc1  sarcomere length (ventricular cardiomyocytes, C57BL/6 mouse; dose not given, 0.024 s): 1.72 µm
NCC(=O)Nc1cncc(-c2nn3c(=O)cc(N4CCNCC4)nc3s2)c1  inhibition of platelet aggregation (ADP-induced platelet aggregation, light transmission aggregometry; human stable CAD patients on aspirin, platelets ex vivo; 0.075 mg/kg, 180 min post dose, together with: 20 µM ADP; relative to: placebo difference): 2.31%
CC(C)C[C@H](NC(=O)[C@@H](Cc1c[nH]c2ccccc12)NC(=O)[C@H](Cc1ccc(O)cc1)NC(=O)[C@H](CO)NC(=O)[C@H](Cc1c[nH]c2ccccc12)NC(=O)[C@H](Cc1c[nH]cn1)NC(=O)[C@@H]1CCC(=O)N1)C(=O)N[C@@H](CCCNC(=N)N)C(=O)N1CCC[C@H]1C(=O)NCC(N)=O  basal LH level (Chinese children, central precocious puberty, serum; intramuscular, 22.5 mg day 1, month 6, month 12): 0.29 IU/L
Cn1cc(Nc2nc(N)nc(-c3cccc(-n4ccc5cc(C6CC6)cc(F)c5c4=O)c3CO)n2)cn1  inhibition (CD63 upregulation, refers to: CD63; basophils (CD123+ HLA-DR-), healthy humans, whole blood ex vivo; 150 mg twice daily (multiple dose), 336 h, together with: anti-IgE): 67.6%
[Cl-].[Cl-].[Pt+2].[Ru+2].c1ccc(-c2nccnc2-c2ccccn2)nc1.c1cnc2c(c1)ccc1cccnc12.c1cnc2c(c1)ccc1cccnc12  activation free energy (chloride substitution, UV-vis kinetics; aqueous buffer; pH 7.2, 35 °C, second substitution step, together with: thiourea): 20.3 ± 1.2 kcal/mol
O=P(O)(O)C(Cl)(Cl)P(=O)(O)O  GFAP-positive area (Mus musculus, sham-operated, hippocampal fissure; concentration not given, day 7; relative to: total area): 3.45% and 4.23%
COc1cccc2c1c(O)c(C(=O)N(C)c1ccc(C(F)(F)F)cc1)c(=O)n2C  serum IL-6 (mouse, CP model, serum; 0.154 µmol/kg, 4 weeks): decreased
Cc1nc(-c2ccc(OCC(C)C)c(C#N)c2)sc1C(=O)O  serum uric acid (mouse, chronic hyperuricaemia model, serum; dose not given): 244 µM and 274 µM and 219 µM and 184 µM and 266 µM
[Cl-].[Cl-].[Pt+2].[Ru+2].c1ccc(-c2nc3ccccc3nc2-c2ccccn2)nc1.c1cnc2c(c1)ccc1cccnc12.c1cnc2c(c1)ccc1cccnc12  activation enthalpy (concentration not given, second substitution step, together with: L-methionine): 10.8 ± 0.717 kcal/mol
N#Cc1ccc2c(CN3CCOCC3)cc(-c3ccc([C@H]4CCC(=O)N4)cc3)nc2c1  CCL2 mRNA level (monocyte-derived macrophages, type 1 diabetes donors; 10 µM, 16 h; relative to: vehicle): decreased
Cc1ccc([C@@H]2O[C@H](CO)[C@@H](O)[C@H](O)[C@H]2O)cc1Cc1ccc(-c2ccc(F)cc2)s1  change in 24-h mean serum insulin (Japanese type 2 diabetes patients; 400 mg, day 1; relative to: day 0): -4.1 µU/mL
C[C@H]1O[C@@H](O[C@H]2CC[C@@]3(C)[C@@H](CC[C@]4(C)[C@@H]3C=C[C@]35OC[C@@]6(CCC(C)(C)C[C@H]63)[C@@H](O)C[C@]54C)[C@]2(C)CO)[C@H](O)[C@@H](O[C@@H]2O[C@H](CO)[C@@H](O)[C@H](O)[C@H]2O)[C@H]1O  γ-GT activity (pair-fed control mice, no ethanol, plasma; oral, 15 mg/kg/day): 20.3 U/L and 17.7 U/L and 28.6 U/L and 20.7 U/L and 31.1 U/L and 27.6 U/L and 14.9 U/L and 20.9 U/L
CCN1CCN(Cc2ccc(Nc3ncc(F)c(-c4cc(F)c5nc6n(c5c4)[C@H](C)CCC6)n3)nc2)CC1  complete response (human advanced solid tumours; 400 mg, phase Ia monotherapy RECIST 1.1): 0%
Cc1nn(-c2nc3c(F)cc(F)cc3s2)c(O)c1C(c1ccc(C(F)(F)F)cc1)c1c(C)nn(-c2nc3c(F)cc(F)cc3s2)c1O  serum amylase activity (mouse, cerulein-induced acute pancreatitis, serum; 25 mg/kg): 71.1 mOD/min and 102 mOD/min and 67 mOD/min and 135 mOD/min and 97.5 mOD/min and 153 mOD/min and 86.3 mOD/min and 43.9 mOD/min
CN[C@@H]1COc2c(S(=O)(=O)NC(=O)Nc3c4c(cc5c3CCC5)CCC4)cnn2C1  inhibition (refers to: IL-18; human participants, whole blood ex vivo; 300 mg twice daily, multiple doses, 12 h, IL-18, circulating, adjusted for, together with: LPS/ATP; relative to: baseline): 87.2%
N#Cc1ccc2c(c1)[C@H]1CCCN(C(=O)c3ccc4[nH]cnc4c3)[C@H]1C2  change from baseline (refers to: LDL; human; 80 mg once daily, day 28, adjusted mean): -4.99 mg/dL
COc1ccc([C@@H](O)c2cc(-c3ncnc4cc(N5CCOCC5)ccc34)c(F)cc2Cl)nn1  disease control rate (RECIST version 1.1; patients, advanced solid tumours; 250 mg twice daily, together with: avelumab; relative to: patients): 1%
Cc1c(Cl)c(C)[n+]([O-])c(Cl)c1-c1noc(-c2cc(O)c(O)c([N+](=O)[O-])c2)n1  Vmax (sulfation, substrate; human liver S9): 0.367 ± 0.015 pmol/min/mg protein
Cc1cc(Nc2ncc(Cl)c(Nc3ccccc3S(=O)(=O)C(C)C)n2)c(OC(C)C)cc1C1CCNCC1  duration of complete response (human; dose not given): 10.3 months
NC(=O)c1cnc2[nH]ccc2c1N[C@@H]1[C@@H]2CC3C[C@H]1C[C@@](O)(C3)C2  percent change (CD8+ effector T cells, flow cytometry; Caucasian humans, peripheral blood; 60 mg single dose; relative to: baseline): -0.12%
C[C@H](Oc1ccc(Br)cc1-c1ccon1)C(=O)O  difference from placebo (response peak; human, tibialis anterior muscle; 800 mg, 30 Hz+30 s): 5.37%
COc1c(Cl)cccc1Nc1c(-c2ccncc2OC[C@@H]2COCCO2)[nH]c2c1C(=O)NCC2  tumour shrinkage (human; oral, 20 mg twice daily, 18 weeks): 52%
COc1ccccc1[C@H](Cn1c(=O)n(C(C)(C)C(=O)O)c(=O)c2c(C)c(-c3ncco3)sc21)OC1CCOCC1  blood LDL level (human; 20 mg, post-treatment): 147 ± 33.3 mg/dL

A few entries again:
NCC(=O)Nc1cncc(-c2nn3c(=O)cc(N4CCNCC4)nc3s2)c1  inhibition of platelet aggregation (ADP-induced platelet aggregation, light transmission aggregometry; human stable CAD patients on aspirin, platelets ex vivo; 0.075 mg/kg, 180 min post dose, together with: 20 µM ADP; relative to: placebo difference): 2.31%
COc1cccc2c1c(O)c(C(=O)N(C)c1ccc(C(F)(F)F)cc1)c(=O)n2C  serum IL-6 (mouse, CP model, serum; 0.154 µmol/kg, 4 weeks): decreased
OC[C@H]1O[C@@H](c2ccc(Cl)c(Cc3ccc(O[C@H]4CCOC4)cc3)c2)[C@H](O)[C@@H](O)[C@@H]1O  systolic blood pressure change (Japanese type 1 diabetes patients; 10 mg, day 28, 672 h; relative to: baseline): -4.6 mmHg
Cc1nn(-c2nc3c(F)cc(F)cc3s2)c(O)c1C(c1ccc(C(F)(F)F)cc1)c1c(C)nn(-c2nc3c(F)cc(F)cc3s2)c1O  serum amylase activity (mouse, cerulein-induced acute pancreatitis, serum; 25 mg/kg): 71.1 mOD/min and 102 mOD/min and 67 mOD/min and 135 mOD/min and 97.5 mOD/min and 153 mOD/min and 86.3 mOD/min and 43.9 mOD/min
